Assay results pooled from the literature.
A part holds a random share of what one study measured. Changes are numbered by the printed parent chain.

Set 1 — method: RNA Bind-n-Seq; form: RNA; sample: in vitro; concentration: 365 nM; relative to: no-protein control; reading: higher = stronger binding
Target: RNA binding protein fox-1 homolog 2, RRM domain, GST-SBP tag (RBFOX2, Homo sapiens, UniProt O43251-10, residues 100-194)
Setting: natural RNA segment, single round, ends assumed
Construct (chain): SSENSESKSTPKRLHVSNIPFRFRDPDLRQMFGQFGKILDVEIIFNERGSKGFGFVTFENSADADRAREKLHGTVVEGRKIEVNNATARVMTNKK
Sequence	RBNS enrichment (R)
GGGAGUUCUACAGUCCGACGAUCAGGCUAGUUGGUCCUCUUUGAGGAAGCAUAUAGUACAGACUUCUUAGCACUUAGGAAGCUUCUCCAACCUGUGCUCUAGGUCAGUAAAACUUCGUCCUCUGAAAUGCUUUUGGAAUUCUCGGGUGCCAA	0.535
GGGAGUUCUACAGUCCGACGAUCGGCUGGAAUCCCGCCCCUAUGGUACCCUCCAGGCCAGCGCCACCGCCUCCGACAGUGUCCUCGCUCUACCUCUGACCUCUCCGGAGGUUCCGCUGCCUCCAAGCCGGACUUGGAAUUCUCGGGUGCCAA	0.443
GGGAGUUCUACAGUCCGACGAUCCCUGGACUUUGCCUGGUGCCUUCUAGGCGUCUUUCAGAGAUGGCCCAGGAGGCUUGGAGCUUGGACAGUGUGUGGUCUUCUCCCUAUCUUGCCUCCUGAUUUUUUUUUUCUGGAAUUCUCGGGUGCCAA	0.24
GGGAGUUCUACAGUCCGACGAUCAGCUAAGAUUUGAUGGCCAGCUGGUUGCCAAAACCUCAAGUCAAUCCUGUGUGCUGGUUAGUUAUGCAAGAAGAAAGCCCCGUAGAAACAGCCUCCAGCUGCACUGGGAGUGGAAUUCUCGGGUGCCAA	0.561
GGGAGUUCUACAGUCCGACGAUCCCUUUCCUCAGUGUUCAUGCAAAAAUUAAAUGUCUUUUUUCAGCAUACUGACUCCAGGUGUAGUUACAUCUCAGUGCUGUCUUGAGUAUAUAUUUUAUCUCUUAUACCUGUGGAAUUCUCGGGUGCCAA	0.322
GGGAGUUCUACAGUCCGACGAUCAAUAAGCAUGAUGGUGCCUUCUAUUACAUCAUUCCAGUCUUGCUGGUGAUCCUGUACGGUGUGGUCUAUGAAUUGCUGCACUGCAAAGCCACACAGCUGCAAAACGUUGAUGGAAUUCUCGGGUGCCAA	8.63
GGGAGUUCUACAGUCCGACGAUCGGUAAAGGGUGACCUUUUGUUUUUAUAUCUAAUUUCUCAAUUUCUUUAUAUGCAUUUUUAGAAUAAUUUGAGAGAUUAAAUGCUGCUUGAAACUAUUAUACUUUGAGUUUUGGAAUUCUCGGGUGCCAA	6.25
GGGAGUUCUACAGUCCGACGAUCAAGUUCCUUUUUCAUGAACACACCCGAGAAAUCUUAAAUAGACACUUUGCAAUAUUUAAGAACCUAAUGCUGUUUAAUUUUGGUACAGCUUCCACAUUGCAUGUUCACUUUGGAAUUCUCGGGUGCCAA	9.35
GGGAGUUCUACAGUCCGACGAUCAGAGUCAAAGUGGCUUUCUACGCCCAGUACGCCAACUGAGUCUGCCCUCGGGAGGUGGCCCAUUAUUGCUGGGAUGCGGUGUUGGUAAAGGUUUCCAGGACUGAAACUUUUGGAAUUCUCGGGUGCCAA	0.436
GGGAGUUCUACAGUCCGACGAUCCUAAAUGGUGUGUUAAAAUUAGGGUUUCUUUGCCUCUCUACACUACACUAAUCUGCCUAAAGGUGGUUGUUUCAUAUUUAUAAUGCUAAUUAUCAUACCUACCUACUUUAUGGAAUUCUCGGGUGCCAA	0.664
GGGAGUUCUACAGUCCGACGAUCCUAAACGCCUUUGAGCUUGUUGGUACCCAGAGAAAUAAACUAAAAUUGUAUGAAAAAAAAACUCUGCCUUCAAGCCUUUAAGGCAGGUUUUUAAGUCAUCAGCCAUAGUCUGGAAUUCUCGGGUGCCAA	0.658
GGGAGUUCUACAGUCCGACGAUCCCCAGAAUUAGCCUGAGCUGCUAAGAAUUCCUCAACCCAUUCCUCUAAGCUGAAAAGCACUCUUGUCAGAAUUUAGACCUAACUAAGAUUCAUCAGUUCCUAACCUACUCUGGAAUUCUCGGGUGCCAA	0.658

Set 2 — method: RNA Bind-n-Seq; form: RNA; sample: in vitro; concentration: 200 nM; setting: whole 134-nt RNA, ends assumed; together with: 150 mM KCl; relative to: input library; reading: higher = stronger binding
Target: Fragile X messenger ribonucleoprotein 1, C-terminal low-complexity region (Fmr1, Mus musculus, UniProt P35922)
Sequence	log2 enrichment
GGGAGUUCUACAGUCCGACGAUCUCAAGUCCUGUGCUACACAUCGUAUGUACCGAAUCGGGGCCGGGCCGGGCCGGGAAAGUAUUAUGUUACGCCGUUCGGAUCUGCACUUCCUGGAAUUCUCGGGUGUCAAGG	0.265
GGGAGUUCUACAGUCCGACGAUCACCAUGCAGGUGGGCAUCUUUGGGAAGUGGGGCAAGGGGGGGAUAGGGAGGGGGGUAACACUUUGGGAACAGGUGGUAAAAGGUCGUUUCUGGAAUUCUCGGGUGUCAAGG	0.433
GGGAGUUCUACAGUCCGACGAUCGCAGGAAGUAAAAACAAAUGGAAAUGCUUCGGAUAGUGGCAGGGGUGGGGGUUGCUAAAAAAAGGGUGGGAUGGGAGUGGGUAAAGAGUUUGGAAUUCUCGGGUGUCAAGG	0.195
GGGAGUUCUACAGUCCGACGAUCUCCUGUGCUACACAUCGUAUGUACCGAAUCGGGGUUUUUGGGGUUUUUGGGGUUUUUGGAAAGUAUUAUGUUACGCCGUUCGGAUCUGCAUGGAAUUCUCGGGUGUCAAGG	0.423
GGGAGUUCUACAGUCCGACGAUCGUCCUGUGCUACACAUCGUAUGUACCGAAUCGGUUUUUUGGGUUUUUUGGUUUUUUGGAAAGUAUUAUGUUACGCCGUUCGGAUCUGCACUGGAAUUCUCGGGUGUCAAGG	-0.649
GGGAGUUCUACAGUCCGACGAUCGUCCUGUGCUACACAUCGUAUGUACCGAAUCGGGUUUUUGGGUUUUUGGGGUUUUUGGGAAAGUAUUAUGUUACGCCGUUCGGAUCUGCAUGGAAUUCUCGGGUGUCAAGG	0.313
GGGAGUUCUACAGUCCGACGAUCGCAGGAAGUAAAAACAAAUAAAAAUGCUUCGGAUAGUGGCAGGGGUGGGGGUUGCUAAGGAAAGGGUGGGAUGGGAGUGGGUAAAGAGUUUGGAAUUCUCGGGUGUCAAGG	0.0143
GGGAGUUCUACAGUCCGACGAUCUUGUUUGAAACAGCAACGCUUCGGUCAGGGUAUCUUUUACCAGACACUAAAGCAUAUGGAGAUAGAAUAGAAAGAAUGCUUCGCCUCAGUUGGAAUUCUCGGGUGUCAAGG	-1.04
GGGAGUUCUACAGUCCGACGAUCCAAGUCCUGUGCUACACAUCGUAUGUACCGAAUCGGUUUUUGGUUUGGAAAAAGGAAAGUAUUAUGUUACGCCGUUCGGAUCUGCACUUCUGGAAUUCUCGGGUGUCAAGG	-0.869
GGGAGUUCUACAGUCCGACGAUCUCCUCAAGUCCUGUGCUACACAUCGUAUGUACCGAAUCGGGCGGGCGGGCGGAAAGUAUUAUGUUACGCCGUUCGGAUCUGCACUUCCAGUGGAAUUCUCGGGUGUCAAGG	1.57

Set 3 — method: protein binding microarray; form: double-stranded DNA, one strand shown; sample: in vitro; concentration: not given; relative to: not given; reading: higher = stronger binding
Target: Histone acetyltransferase KAT6A, winged helix 2, GST fusion (KAT6A, Homo sapiens, UniProt Q92794, residues 85-181)
Setting: 8-mer, flanks averaged, mean of 2 arrays, mostly near background
Construct (chain): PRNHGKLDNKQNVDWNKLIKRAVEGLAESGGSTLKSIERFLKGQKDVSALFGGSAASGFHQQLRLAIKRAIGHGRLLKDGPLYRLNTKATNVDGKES
Sequence	E-score
AATATGCA	-0.0211
AGGTCAAT	-0.066
CGATGGCA	0.0881
CGTTCAGA	0.0049
ATCCCGCA	-0.00504
CTCCTGTA	-0.0886
ATCATGAC	0.0223
ATGACCGA	0.0116
AGCGTCGG	0.0648
AGTGGCGC	0.0826
CTGCGAAA	0.174
GGCGGCCA	0.0267
AGCAACGC	0.193
ATAATAAG	-0.109
CGACGGAC	0.0942
CGGTCCAG	0.00507
CTGGGTTC	0.179
AAGCCGGT	0.0666
CTACCACA	-0.0828
TGTCAACA	-0.0792
ACTTGTAA	-0.214
CGCCTGCA	0.162

Set 4 — method: DHFR PCA, deep sequencing; sample: yeast; together with: (+)-ABA 4.8 µM; relative to: wild-type fitted maximum; reading: higher = stronger binding
Target: ABI1, truncated, D143A, DHFR fusion (Arabidopsis thaliana)
Setting: methotrexate growth selection, single substitutions
Starting sequence: PYL1, truncated, DHFR fusion (Arabidopsis thaliana); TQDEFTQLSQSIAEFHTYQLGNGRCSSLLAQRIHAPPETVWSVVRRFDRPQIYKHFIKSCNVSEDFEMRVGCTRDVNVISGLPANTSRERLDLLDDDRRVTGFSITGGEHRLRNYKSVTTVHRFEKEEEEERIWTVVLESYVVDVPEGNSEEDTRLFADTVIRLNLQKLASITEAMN; partner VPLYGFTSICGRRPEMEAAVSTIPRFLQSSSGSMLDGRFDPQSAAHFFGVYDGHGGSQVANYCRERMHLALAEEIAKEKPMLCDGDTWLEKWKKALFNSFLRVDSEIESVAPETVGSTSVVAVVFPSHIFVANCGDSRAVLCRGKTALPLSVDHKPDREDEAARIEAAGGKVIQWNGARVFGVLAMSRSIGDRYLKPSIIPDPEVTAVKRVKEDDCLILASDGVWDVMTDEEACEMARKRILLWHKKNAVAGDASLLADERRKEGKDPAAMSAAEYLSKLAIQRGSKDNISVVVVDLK
Change	relative binding score [%]
L94Q	2.88
T154F	-12.5
R98N	64.3
E174P	-2.52
E151R	59.5
C25L	23.4
R90L	-7.3
T120F	-7.01
S140H	-1.39
L169P	10.4
R45A	-1.13
N61F	68.7
V118R	84.5
T39I	75.9
L93C	60.9
R111Q	3.53
Y141H	3.5
R32H	67.3
V76L	59
D92F	-4.2
R132P	92.8
K126L	78.2
V161P	-3.26
D96T	-9.52
R113H	76.7

Excerpt of the above (set 3):
Sequence	E-score
CTGGGTTC	0.179
AGCGTCGG	0.0648
CGGTCCAG	0.00507
AATATGCA	-0.0211
